Measurements pooled from the literature.
Numbered parts are unrelated; each lists some results of a single study. Positions count from the first letter of the parent shown.

Block 1 — method: RNA Bind-n-Seq; molecule type: RNA; medium: in vitro; tested at: 100 nM; reference: input RNA pool; reading: higher = stronger binding
Target: RING finger protein unkempt homolog, zinc fingers 1-6, SBP tag (UNK, Homo sapiens, UniProt Q9C0B0, residues 30-357)
UniProt Q9C0B0, sequence (30-357, looked up): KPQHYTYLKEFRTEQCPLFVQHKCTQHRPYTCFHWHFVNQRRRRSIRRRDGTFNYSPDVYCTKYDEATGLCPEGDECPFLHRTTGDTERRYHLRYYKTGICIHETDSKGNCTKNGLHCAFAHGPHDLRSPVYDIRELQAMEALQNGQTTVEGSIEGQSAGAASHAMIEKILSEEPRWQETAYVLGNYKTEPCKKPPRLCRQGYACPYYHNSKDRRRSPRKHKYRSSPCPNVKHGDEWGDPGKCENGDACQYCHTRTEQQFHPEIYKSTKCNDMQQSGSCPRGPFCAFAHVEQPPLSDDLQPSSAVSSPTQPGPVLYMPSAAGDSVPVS
Notes: RNA with constant flanks, vertebrate orthologous sites, ends assumed
Constant ends, left off below: GGGAGUUCUACAGUCCGACGAUC … CAACAGAGGAUUGAGCAUCA
Strand | bound/input enrichment [ratio]
AUUGAACAAAAAUGUUUCCACUGGCUUUUGCCUGUAAGAAAAAAAAUGUACCCGAGCACAUAGAGCUUUUUAAUAGCACUAACCAAUGCCUUUUUAGAUGUAUUUUUGAUGUAUAUAUCU | 0.607
UUACACUUAAACUGGUAUUUUCAAACAAUAGGAAACUAUUUUUUCUUUUUUUACAGUUUAGCGUGUAUCUGGCUUGUACAUGGAAGACUAAAAUGUUUGAUUUGCUAAAUGUGGUCUUUG | 0.293
GAUGAAGAUGGUGGUUGUACAUUAUUUCAUUUAGAAAAUAUAAAAAUUUUGGUUUGAAGCUAGGUAUUAAACUGGAAUAGCUAUAUACCCCAGAGACUGGGGCAGUUGUGCCCUUCCCUU | 1.11
UCGCCCAGUUCAUCCCAGCAGCUUCGCCCUCCGACCUGCACAGCUUGCAAAGGAACAGUCUAGUGGUAUUUGUAUUUUAAUUUAAAACCUGCUUUUCCCAAAACUGAUCAAGAAGCUACG | 0.573
UUGGGACCAGCUCACCAAAUAGGAAUAAUAGUAAAAAAUAUAAACAAAAUGAUAUUUGUAUAGAAAAGACAGACGCUAAAUCAUGCAAGAUAAAUGCUGCCAGUGUUCAAGGCUCUAAAG | 4.75
AAAAAUGCCUUUCCUUUUUUAAAAGUUAAGCGGAUCAUCUGAGAAGAGUACAAGGUUAUUAGAAUGCCUUUGUGGUUAAGUCACAGUAUAUUGUUUUUGGUUGUUUGAUAGGUUUAUUUU | 0.392
UUCACCACUCCUGGGUGCAUGAUUGAGGGUGAAGCAUCCACCAGCACUUCAAGGGGUCCAUAGUAUUUUUUUUUUUGCUGCCUCAAAGUCCCCAAAGCCUUCGAGCAGAAGUGGCAGUAG | 1.8
UUCAGUCCCCUGGGCUGGGACACUUGUUUUUUAACAUCUUGAAAUUUAACUCUGUGCUUGUAGAAGACUGUAACCUUUUUUUCUUUUUUUUUUUUUAAACAACCUCCACCUCCAGUGGCU | 2.02
UAAUUCAAUGGUUGAGGGUUCAGAACUCAAAAAGGUUCGCUCCAACUCUAGAAUUUAUCAUAGGUACUUUUUACUGGAUGCCGACAUGCAGAGCCUAAGGUGGGAGCCAUCUAAGAAGGA | 0.248
AAGACGGUGGUUGUACAUUAUUUCAUUUAGAAAAUAUGAAAACUCAUCUUGUUUUGAAGCUAGGUGUUAAACUGGAAUAGCUAUUACGUUCUUGAAAAAUGGGGCAGUUGUGCCCUUUCC | 0.632
UGUAUGUUUGGGUUAGAUGGGAGGGUGGGGCAGGACAGUAUGGAAUCUCUAUAGAGUGUGUGGGUAGAUAGGAUACACACUUAGCUCUAAGUGGGCCUUGAUGUUUAAAAACCUAGGAGU | 0.367

Block 2 — method: competition protein-binding microarray; molecule type: double-stranded DNA, one strand shown; medium: in vitro; tested at: 2 µM; with: Cbf1 competitor, 0.05 µM; reading: higher = stronger binding; constant ends, left off below: … GTCTTGATTCGCTTGACGCTGCTG
Target: Phosphate system positive regulatory protein PHO4, full length, GST-tagged (PHO4, Saccharomyces cerevisiae, UniProt P07270, residues 1-312)
Notes: whole 60-bp probe, lowest competitor level
Residues (chain): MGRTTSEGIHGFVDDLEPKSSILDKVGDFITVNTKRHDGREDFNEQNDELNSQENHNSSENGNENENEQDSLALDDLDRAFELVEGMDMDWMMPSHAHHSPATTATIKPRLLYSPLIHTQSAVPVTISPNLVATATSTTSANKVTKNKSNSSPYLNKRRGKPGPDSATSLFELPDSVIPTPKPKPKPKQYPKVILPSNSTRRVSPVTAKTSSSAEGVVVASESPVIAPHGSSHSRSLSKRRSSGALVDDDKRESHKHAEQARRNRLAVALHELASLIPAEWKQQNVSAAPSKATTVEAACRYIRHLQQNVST
Strand | fluorescence intensity
AAAGCGGTAATTTGTCACCCCACTTCACATATCTAT | 3690 a.u.
CTCCCTGGGCGGCTGCACGTGCTGGCTGGCTCCTCC | 17100 a.u.
CTTCTGTAAATTTGATTCGTGGGTGGACGCGCCCCG | 5300 a.u.
CTCAAAAGCTTGGGGTGCGTGGGACGGCGCTGCTCG | 8730 a.u.
GATCCCGCTCCTTGGCGTGTTCATTCTGTTACGATC | 4830 a.u.
AAAAAATAAGCTTTTCTCGTGCCGAGAGTGGTGTAC | 6070 a.u.
CCCGATCCTTCTTACCGCGTGCTTTGTGAAAAGCAA | 11900 a.u.
CTTTCCCGATCTTGTCTAGTGGGTGTAGCACATTTG | 5420 a.u.
CTTTCCCGATCTTGGGGTGTGGGTGTAGCACATTTG | 7490 a.u.
TGACTCACCCCCGGCCACGTGGCCGGTAGGAGGCCC | 14200 a.u.
TGAAGACAACTCGGCCACGTGGGTAAAAGAAGAAGC | 20200 a.u.
GTGAACTACAACAAAAAGAGAAGGCTGGTAAGGGCA | 3340 a.u.
CGGGGTTAAGTTTGGCACGTGGGTGGCTTGCAGCAG | 18800 a.u.
CTAACGAAGGTTTGTGGCGTGGGTGACAAGCCAAGT | 6990 a.u.
AAATGTATACCACTTCACGTGCCAGCGAGTAGGTTT | 16200 a.u.
TGCAAGTGAGTATGGCATGTGGTGGTGGGATTAGAG | 12800 a.u.
TGCGCAACAACTTGTGCGGTGGGTGTATGTCTAGAA | 6540 a.u.
GTTATTCTCTAGTGTTTCGTGCTAAAATAACCGAGT | 6370 a.u.
TGCGCAACAACTTTTCACGTGGTCTTATGTCTAGAA | 11900 a.u.
TGTTGCTGTTCGCGTCAGCTGAGGCTGAGTATCGTT | 2730 a.u.
TACTAGCACTGCCACACCGTGCAATCCATACAGGAT | 7650 a.u.
CGGGGTTAAGTTTGTCACCTCACTTGCTTGCAGCAG | 3250 a.u.
AGGTGCTGCAACAAAAGCAAGTCCCACTGGACCTTT | 3580 a.u.
TGATTTCTCTATTTTATATTGCCTATTATTTTTTCA | 2810 a.u.
GATAATGACACACAGCACGCAAGTACAAGTGTCAAT | 7050 a.u.

Block 3 — method: universal PBM; molecule type: double-stranded DNA, one strand shown; medium: in vitro; tested at: not given; reading: higher = stronger binding
Target: Sal-like protein 4, full length isoform B (SALL4, Homo sapiens, UniProt Q9UJQ4-2, residues 1-616)
Notes: 8-mer, flanks averaged, mean of replicates
Strand | E-score
AGATAATA | 0.321
AACCCGAG | -0.102
GTCAAATA | 0.294
ACCCTGCG | -0.141
CTCAGACC | -0.213
AAACTGAT | 0.0483
ATGAGCGA | -0.0265
AAACACTC | 0.113
CGCAAGAG | -0.117
AGTTGACG | -0.00323
CATGAATC | 0.049
GGGATTTA | 0.122
TACCTAGA | 0.152
ATGGATTA | 0.239
AAGGGCTA | -0.0581
GCTGTAGA | -0.0798
TATCACAA | 0.227
GCCTGGAA | -0.0183
ACGAGCGG | -0.239
GATTGACA | 0.123
ACTCTTGA | -0.0153
CCCGATGA | 0.0415
ACGACCAG | 0.0147
CAGTTCGC | -0.0179
GGAAAGGA | -0.131

Block 4 — method: DHFR PCA, deep sequencing; medium: yeast; with: (+)-ABA 0.0091 µM; reference: wild-type fitted maximum; reading: higher = stronger binding
Target: ABI1, truncated, D143A, DHFR fusion (Arabidopsis thaliana)
Notes: methotrexate growth selection, single substitutions
Starting sequence: PYL1, truncated, DHFR fusion (Arabidopsis thaliana); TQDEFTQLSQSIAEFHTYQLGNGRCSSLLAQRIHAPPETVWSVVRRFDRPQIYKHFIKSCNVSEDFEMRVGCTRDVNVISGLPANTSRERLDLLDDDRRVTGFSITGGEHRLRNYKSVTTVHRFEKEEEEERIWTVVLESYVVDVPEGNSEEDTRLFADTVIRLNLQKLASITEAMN
Change | relative binding score
V44C | -1.03%
D65G | 23.9%
A13P | -2.27%
R88P | -4.69%
M68F | 5.65%
F124S | -0.12%
Q51F | -6.25%
G71A | -1.03%
D144Q | -7.11%
V118E | -3.09%
Y53M | -1.67%
D48M | -0.677%
D153K | -4.17%
L166Q | -2.68%
S59I | 13.5%
I57C | 0.236%
A175I | -1.37%
D144I | -5.75%
S27E | -5.65%
Y18N | -1.35%
S140K | -5.44%
D159V | -1.76%
L91T | -6.31%

Block 5 — target: CCNE2, cyclin fold, Cln2 fusion (human); method: yeast growth competition, sequencing; medium: yeast; notes: strong parent motif; reference: not given; reading: higher = stronger binding
Starting sequence: RBL1 docking peptide (human); GSAKRRLFGEDPP
Change | normalised enrichment score
D11A | 4.26
A3G | 0.867
F8Q | 0.064
F8H | 0.412
A3N | -0.554
G9P | 4.67
R5I | -0.0361
D11L | 3.29
G1Y | 4.97
A3R | 0.768
D11T | 4.26
E10I | 3.18
R6W | 1.12
G9E | 5.7
A3P | 0.682
G9C | 5.93
P13H | 4.61
P12G | 3.89
E10Q | 3.14
R5T | 0.13
D11K | 2.74
P12R | 4.03
R5N | 0.466
D11S | 4.01
K4S | 1.18
